Literature values, collected from citations in different studies.
Numbered parts are unrelated; values within a part may stem from several laboratories.

Block 1 — SMILES: CN(C)CC/C=C1/c2ccccc2Sc2ccc(Cl)cc21; cell line: MCF7; method: microarray; tested at: concentration not given; relative to: DMSO; measurement: log2 fold change
refers to: VEZF1 mRNA: 1.33
refers to: WDR45 mRNA: 1.22
refers to: SLC38A7 mRNA: 1.28

Block 2 — organism: Toxoplasma gondii; read-out: parasite growth; tested at: concentration not given; notes: published screen; measurement: activity class
COc1nc(C)nc(Cl)c1NC1=NCCN1.Cl: inactive
CC#C[C@]1(O)CC[C@H]2[C@@H]3CCC4=CC(=O)CCC4=C3[C@@H](c3ccc(N(C)C)cc3)C[C@@]21C: inactive
CCOc1cc(CC(=O)N[C@@H](CC(C)C)c2ccccc2N2CCCCC2)ccc1C(=O)O: inactive

Other studies, line by line
CCC(=O)N[C@@H]1CC[C@H](C(=O)N(C)c2ccc(-c3nc4ccccc4o3)cc2)C1 — IC50 (FASN; biochemical activity): > 3000 nM
CC(=O)N[C@@H](CSC(=O)[C@]1([C@@H](O)C(C)C)NC(=O)[C@H](C)[C@@H]1O)C(=O)O — EC50 (proteasome): 600 nM
COc1cc(-c2cn(C3CCc4c(F)cccc4N(CC(F)(F)F)C3=O)nn2)ccc1-n1cnc(C)c1 (stereo not drawn) — IC50 (SLC6A3): 536 nM
CC(C)C[C@@H](C=O)NC(=O)[C@H](CC(C)C)NC(=O)[C@H](CC(C)C)NC(=O)OCc1ccccc1 — EC50 (proteasome): 4 nM
CO[C@@H](C)c1c(Nc2ccc([C@H](N(C)C(=O)C3CCS(=O)(=O)CC3)C(F)(F)F)cc2)cnc2cc(Cl)nn12 — IC50 (MALT1 (human); cellular activity): 3.4 nM
C[C@H](NC(=O)Nc1cc2[nH]ncc2c(CO)n1)c1ccccn1 — IC50 (MAPK1; biochemical): 1780 nM

Some of these lines once more (other studies, line by line):
COc1cc(-c2cn(C3CCc4c(F)cccc4N(CC(F)(F)F)C3=O)nn2)ccc1-n1cnc(C)c1 (stereo not drawn) — IC50 (SLC6A3): 536 nM
